Published values collected from several papers.
Each numbered part is a random draw from the data of one study; scales do not carry over between parts.
Sequence of UniProt Q9UQM7 (whole entry, looked up): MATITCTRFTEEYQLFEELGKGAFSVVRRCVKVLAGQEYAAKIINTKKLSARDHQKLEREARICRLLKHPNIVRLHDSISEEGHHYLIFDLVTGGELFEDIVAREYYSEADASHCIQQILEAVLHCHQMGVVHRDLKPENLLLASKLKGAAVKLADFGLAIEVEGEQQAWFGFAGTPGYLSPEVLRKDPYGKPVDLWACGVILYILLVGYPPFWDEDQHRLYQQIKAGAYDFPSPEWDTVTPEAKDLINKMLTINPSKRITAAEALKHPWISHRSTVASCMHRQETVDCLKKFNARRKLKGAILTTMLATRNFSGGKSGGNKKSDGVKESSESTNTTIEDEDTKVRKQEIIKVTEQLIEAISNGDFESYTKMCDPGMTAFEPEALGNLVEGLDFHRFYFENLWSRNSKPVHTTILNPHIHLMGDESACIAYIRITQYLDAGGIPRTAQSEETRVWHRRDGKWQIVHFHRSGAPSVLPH
Sequence of UniProt P42336 (whole entry, unmodified, looked up): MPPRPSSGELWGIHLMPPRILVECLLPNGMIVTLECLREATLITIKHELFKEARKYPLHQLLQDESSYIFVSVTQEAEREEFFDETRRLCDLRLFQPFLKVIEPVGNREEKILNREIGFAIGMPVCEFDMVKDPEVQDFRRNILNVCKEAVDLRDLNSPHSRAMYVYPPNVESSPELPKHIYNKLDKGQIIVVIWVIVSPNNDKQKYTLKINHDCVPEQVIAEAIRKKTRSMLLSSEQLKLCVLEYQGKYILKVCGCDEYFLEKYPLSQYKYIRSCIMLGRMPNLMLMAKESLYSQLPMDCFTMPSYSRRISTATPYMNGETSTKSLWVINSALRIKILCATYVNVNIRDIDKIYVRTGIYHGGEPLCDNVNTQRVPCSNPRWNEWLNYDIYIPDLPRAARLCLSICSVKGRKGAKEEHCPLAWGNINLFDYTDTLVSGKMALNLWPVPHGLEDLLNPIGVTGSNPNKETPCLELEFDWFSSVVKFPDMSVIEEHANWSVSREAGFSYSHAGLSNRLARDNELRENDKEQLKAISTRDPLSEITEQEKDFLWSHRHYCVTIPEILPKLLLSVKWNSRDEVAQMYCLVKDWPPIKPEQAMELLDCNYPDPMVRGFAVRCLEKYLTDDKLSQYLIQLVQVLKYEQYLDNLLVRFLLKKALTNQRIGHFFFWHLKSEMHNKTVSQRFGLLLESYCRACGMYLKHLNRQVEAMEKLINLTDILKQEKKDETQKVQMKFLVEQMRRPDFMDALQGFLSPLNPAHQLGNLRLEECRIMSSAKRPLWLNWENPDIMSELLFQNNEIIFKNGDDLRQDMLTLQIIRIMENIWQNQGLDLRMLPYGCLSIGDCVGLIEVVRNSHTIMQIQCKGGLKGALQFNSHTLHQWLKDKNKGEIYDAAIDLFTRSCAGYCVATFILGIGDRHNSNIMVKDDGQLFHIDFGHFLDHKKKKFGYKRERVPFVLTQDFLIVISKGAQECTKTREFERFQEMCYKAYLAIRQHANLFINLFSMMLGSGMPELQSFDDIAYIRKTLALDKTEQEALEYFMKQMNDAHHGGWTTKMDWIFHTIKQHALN
Sequence of UniProt O15075 (whole entry, looked up): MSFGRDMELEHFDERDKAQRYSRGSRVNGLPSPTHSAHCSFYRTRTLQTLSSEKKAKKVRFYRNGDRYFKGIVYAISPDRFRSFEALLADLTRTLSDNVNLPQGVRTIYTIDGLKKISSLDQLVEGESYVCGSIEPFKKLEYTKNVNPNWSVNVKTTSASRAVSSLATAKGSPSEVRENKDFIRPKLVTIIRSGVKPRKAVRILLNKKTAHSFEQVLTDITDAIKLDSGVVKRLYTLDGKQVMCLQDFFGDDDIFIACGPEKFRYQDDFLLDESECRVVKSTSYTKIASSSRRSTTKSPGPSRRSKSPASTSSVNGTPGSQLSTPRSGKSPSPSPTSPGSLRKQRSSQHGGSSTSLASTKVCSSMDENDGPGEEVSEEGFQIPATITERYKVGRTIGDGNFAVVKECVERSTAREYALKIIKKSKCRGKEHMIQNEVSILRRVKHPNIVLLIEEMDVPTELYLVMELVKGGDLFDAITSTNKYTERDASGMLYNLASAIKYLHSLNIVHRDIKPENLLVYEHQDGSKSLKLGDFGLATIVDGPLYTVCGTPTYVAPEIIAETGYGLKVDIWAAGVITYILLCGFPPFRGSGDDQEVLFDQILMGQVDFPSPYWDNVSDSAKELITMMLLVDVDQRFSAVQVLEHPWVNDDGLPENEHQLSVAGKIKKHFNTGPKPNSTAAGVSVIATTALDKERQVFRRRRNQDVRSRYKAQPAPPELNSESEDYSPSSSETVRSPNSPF
Sequence of UniProt O75582 (whole entry, looked up): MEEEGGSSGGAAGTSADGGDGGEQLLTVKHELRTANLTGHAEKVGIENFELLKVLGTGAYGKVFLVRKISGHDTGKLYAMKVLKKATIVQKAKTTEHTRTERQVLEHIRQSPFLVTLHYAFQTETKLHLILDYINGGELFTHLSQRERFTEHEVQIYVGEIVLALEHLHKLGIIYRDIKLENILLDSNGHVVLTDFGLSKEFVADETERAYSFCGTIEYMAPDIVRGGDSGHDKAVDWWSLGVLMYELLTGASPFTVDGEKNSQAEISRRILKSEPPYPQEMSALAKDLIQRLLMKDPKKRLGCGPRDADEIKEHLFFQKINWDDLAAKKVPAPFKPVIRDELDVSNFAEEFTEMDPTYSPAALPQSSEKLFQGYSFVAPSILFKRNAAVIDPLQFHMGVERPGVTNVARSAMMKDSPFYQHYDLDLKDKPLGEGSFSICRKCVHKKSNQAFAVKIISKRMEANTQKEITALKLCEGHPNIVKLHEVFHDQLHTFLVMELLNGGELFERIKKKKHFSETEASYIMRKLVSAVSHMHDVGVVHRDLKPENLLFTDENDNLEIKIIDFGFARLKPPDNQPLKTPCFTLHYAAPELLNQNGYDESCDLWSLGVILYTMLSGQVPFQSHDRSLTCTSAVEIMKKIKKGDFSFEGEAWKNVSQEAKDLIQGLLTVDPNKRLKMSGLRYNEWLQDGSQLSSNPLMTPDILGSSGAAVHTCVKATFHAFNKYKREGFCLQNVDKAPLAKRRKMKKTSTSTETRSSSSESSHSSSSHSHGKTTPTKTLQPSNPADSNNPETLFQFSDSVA
Sequence of UniProt O00141 (whole entry, looked up): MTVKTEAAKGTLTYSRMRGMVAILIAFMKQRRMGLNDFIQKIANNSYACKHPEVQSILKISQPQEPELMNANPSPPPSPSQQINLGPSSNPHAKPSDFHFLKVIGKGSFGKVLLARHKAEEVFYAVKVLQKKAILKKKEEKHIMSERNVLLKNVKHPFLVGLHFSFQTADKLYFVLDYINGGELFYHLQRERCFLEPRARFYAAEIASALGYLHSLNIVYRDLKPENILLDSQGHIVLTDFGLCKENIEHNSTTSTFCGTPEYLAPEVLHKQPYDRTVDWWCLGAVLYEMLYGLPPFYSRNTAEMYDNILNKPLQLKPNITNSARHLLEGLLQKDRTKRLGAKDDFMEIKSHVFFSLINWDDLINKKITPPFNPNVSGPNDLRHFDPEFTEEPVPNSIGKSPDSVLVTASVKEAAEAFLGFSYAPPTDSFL
Sequence of UniProt P06241 (whole entry, looked up): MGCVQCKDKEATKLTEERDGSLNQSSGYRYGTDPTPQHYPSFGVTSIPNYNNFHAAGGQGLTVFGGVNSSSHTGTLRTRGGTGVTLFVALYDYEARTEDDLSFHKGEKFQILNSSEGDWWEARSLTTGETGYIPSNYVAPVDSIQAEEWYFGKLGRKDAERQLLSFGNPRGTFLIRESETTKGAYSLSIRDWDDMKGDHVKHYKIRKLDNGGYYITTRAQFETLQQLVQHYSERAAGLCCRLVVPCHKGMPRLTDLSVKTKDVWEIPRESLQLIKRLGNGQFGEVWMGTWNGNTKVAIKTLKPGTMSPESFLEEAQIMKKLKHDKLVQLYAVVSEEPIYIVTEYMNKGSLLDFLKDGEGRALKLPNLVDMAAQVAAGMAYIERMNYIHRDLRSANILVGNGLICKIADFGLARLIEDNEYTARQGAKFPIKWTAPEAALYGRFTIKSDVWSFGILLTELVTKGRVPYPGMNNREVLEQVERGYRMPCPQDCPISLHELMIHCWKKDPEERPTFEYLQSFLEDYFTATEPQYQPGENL

Set 1
Target: NT-3 growth factor receptor (NTRK3, Homo sapiens, UniProt Q16288)
Sequence of UniProt Q16288 (whole entry, looked up): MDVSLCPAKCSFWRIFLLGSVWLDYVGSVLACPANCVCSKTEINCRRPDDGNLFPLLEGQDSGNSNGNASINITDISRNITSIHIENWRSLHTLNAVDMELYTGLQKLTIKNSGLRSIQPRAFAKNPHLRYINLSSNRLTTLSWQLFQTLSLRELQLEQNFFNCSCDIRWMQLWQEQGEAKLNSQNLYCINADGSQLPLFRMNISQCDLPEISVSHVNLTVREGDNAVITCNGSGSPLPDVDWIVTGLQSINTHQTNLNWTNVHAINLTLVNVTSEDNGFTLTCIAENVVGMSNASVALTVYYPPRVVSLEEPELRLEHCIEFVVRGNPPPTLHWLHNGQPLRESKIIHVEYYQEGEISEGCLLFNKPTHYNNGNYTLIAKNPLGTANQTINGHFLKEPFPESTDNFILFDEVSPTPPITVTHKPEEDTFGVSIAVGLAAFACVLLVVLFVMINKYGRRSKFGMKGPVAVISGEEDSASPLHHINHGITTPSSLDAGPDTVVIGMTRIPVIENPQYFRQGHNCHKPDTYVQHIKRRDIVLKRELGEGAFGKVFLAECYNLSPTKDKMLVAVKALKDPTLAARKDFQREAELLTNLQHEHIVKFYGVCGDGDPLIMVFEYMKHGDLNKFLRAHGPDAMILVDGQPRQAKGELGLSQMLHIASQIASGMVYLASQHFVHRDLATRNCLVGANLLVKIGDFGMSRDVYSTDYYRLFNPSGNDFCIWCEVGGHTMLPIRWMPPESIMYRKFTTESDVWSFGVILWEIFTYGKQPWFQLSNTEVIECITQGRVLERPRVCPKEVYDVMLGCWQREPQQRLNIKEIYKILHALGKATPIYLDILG
Observed: enzyme activity
Mode: inhibitor
Tested at: 0.5 µM
Baseline: control
SMILES	remaining activity [%]
CO[C@H]1C[C@@H]2CC[C@@H](C)[C@@](O)(O2)C(=O)C(=O)N2CCCC[C@H]2C(=O)O[C@H]([C@H](C)C[C@@H]2CC[C@@H](O)[C@H](OC)C2)CC(=O)[C@H](C)/C=C(\C)[C@@H](O)[C@@H](OC)C(=O)[C@H](C)C[C@H](C)/C=C/C=C/C=C/1C	103
O=S(=O)(c1cccc2cnccc12)N1CCCNCC1	85.5
O=C1NC(=O)C(c2cn(CCCn3ccnc3)c3ccccc23)=C1Nc1ccccc1	40
COc1ccc(C(=O)Nc2sc3c(c2C(N)=O)CCCC3)cc1OC	57.8
COc1cc2nccc(Oc3ccc(NC(=S)NC(=O)c4ccccc4C)cc3)c2cc1OC	86.1
Cc1ccc(NC(=O)c2ccc(CN3CCN(C)CC3)cc2)cc1Nc1nc(-c2cccnc2)cs1	94.1
Cn1sc(=O)n(Cc2ccccc2)c1=O	107
Nc1[nH]nc2nc3ccccc3nc12	92.1
OCC(O)CCON=C1C(c2c(O)[nH]c3ccccc23)=Nc2ccccc21 (stereo not drawn)	1.01
O=c1c2ccccc2[nH]c(=S)n1CCN1CCC(=C(c2ccc(F)cc2)c2ccc(F)cc2)CC1	98.9
C#Cc1cccc(Nc2ncnc3cc(OCCOC)c(OCCOC)cc23)c1	96
COc1ccc(CNC(=O)Nc2ncc([N+](=O)[O-])s2)cc1	98.7
O=C(CCCc1ccc(-c2ccccc2F)cc1)Nc1ccc(O)cc1	96.3
CCOC(=O)c1c(C)[nH]c(/C=C2\C(=O)Nc3ccccc32)c1C	27.9
O=C(O)c1ccc2c3c1cccc3c(=O)n1c3ccccc3nc21	67.1

Set 2
Compound: Cc1cc(C)c(-n2ccn3nc(-c4cccnc4)cc23)cc1NC(=O)c1cc(C#N)cc(S(F)(F)(F)(F)F)c1
Observed: cell-free assay
Technique: competition with immobilised ligand
Tested at: 0.1 µM
target	remaining binding
FYN (Homo sapiens, UniProt P06241)	97.5%
PIK3CA (Homo sapiens, UniProt P42336, M1043I)	100%
DSTYK (Homo sapiens, UniProt Q6XUX3)	71.1%
Ribosomal protein S6 kinase alpha-5, N-terminal kinase domain (RPS6KA5, Homo sapiens, UniProt O75582)	83.2%
DCLK1 (Homo sapiens, UniProt O15075)	73.6%
SGK1 (Homo sapiens, UniProt O00141)	100%
EGFR (Homo sapiens, UniProt P00533, del746-750)	72.9%

Set 3
Cell line: HaCaT
Tested at: 100 µM
Time: 36 h
SMILES	viability
CO[C@H]1C(=O)[C@]2(C)[C@@H](OC)C[C@H]3OC[C@@]3(OC(C)=O)[C@H]2[C@H](OC(=O)c2ccccc2)[C@]2(O)C[C@H](OC(=O)[C@H](O)[C@@H](NC(=O)OC(C)(C)C)c3ccccc3)C(C)=C1C2(C)C	64.7%
CCOc1nc2cccc(C(=O)O)c2n1Cc1ccc(-c2ccccc2-c2noc(=O)[nH]2)cc1	88.8%
O=C1c2cccc(O)c2C(=O)c2c(O)cc(CO)cc21	57.7%
O=C(O)c1ccccc1O	86.6%
O=C(O)Cc1cc(I)c(Oc2ccc(O)c(I)c2)c(I)c1	60.1%
CN1C(C(=O)Nc2ccccn2)=C(O)c2sc(Cl)cc2S1(=O)=O	49.3%
C[N+]1(CCCCC[N+]2(C)CCCC2)CCCC1	92.2%
CC(C)c1ccc2oc3nc(N)c(C(=O)O)cc3c(=O)c2c1	84.9%
CC(C)C[C@H](NC(=O)[C@@H](O)[C@H](N)Cc1ccccc1)C(=O)O	80.7%
COc1cc2ccc(=O)oc2cc1OC	35.2%

Other studies, line by line
Compound	target	observed	mode	technique	endpoint	result
Cc1cc(-c2ccc(/N=N/c3ccc4c(S(=O)(=O)O)cc(S(=O)(=O)O)c(N)c4c3O)c(C)c2)ccc1/N=N/c1ccc2c(S(=O)(=O)O)cc(S(=O)(=O)O)c(N)c2c1O	Calcium/calmodulin-dependent protein kinase type II subunit alpha (CAMK2A, Homo sapiens, UniProt Q9UQM7)	enzyme activity	inhibitor	ADP detection	IC50	0.197 µM

Some of these lines once more (set 1):
SMILES	remaining activity [%]
COc1cc2nccc(Oc3ccc(NC(=S)NC(=O)c4ccccc4C)cc3)c2cc1OC	86.1
Cc1ccc(NC(=O)c2ccc(CN3CCN(C)CC3)cc2)cc1Nc1nc(-c2cccnc2)cs1	94.1
Cn1sc(=O)n(Cc2ccccc2)c1=O	107
Nc1[nH]nc2nc3ccccc3nc12	92.1
OCC(O)CCON=C1C(c2c(O)[nH]c3ccccc23)=Nc2ccccc21 (stereo not drawn)	1.01
